Published values collected from several papers.
Protocols differ between the studies behind these lines.
PTGS2: Prostaglandin G/H synthase 2 (PTGS2, Homo sapiens, UniProt P35354)
Chain of UniProt P35354 (whole entry, looked up): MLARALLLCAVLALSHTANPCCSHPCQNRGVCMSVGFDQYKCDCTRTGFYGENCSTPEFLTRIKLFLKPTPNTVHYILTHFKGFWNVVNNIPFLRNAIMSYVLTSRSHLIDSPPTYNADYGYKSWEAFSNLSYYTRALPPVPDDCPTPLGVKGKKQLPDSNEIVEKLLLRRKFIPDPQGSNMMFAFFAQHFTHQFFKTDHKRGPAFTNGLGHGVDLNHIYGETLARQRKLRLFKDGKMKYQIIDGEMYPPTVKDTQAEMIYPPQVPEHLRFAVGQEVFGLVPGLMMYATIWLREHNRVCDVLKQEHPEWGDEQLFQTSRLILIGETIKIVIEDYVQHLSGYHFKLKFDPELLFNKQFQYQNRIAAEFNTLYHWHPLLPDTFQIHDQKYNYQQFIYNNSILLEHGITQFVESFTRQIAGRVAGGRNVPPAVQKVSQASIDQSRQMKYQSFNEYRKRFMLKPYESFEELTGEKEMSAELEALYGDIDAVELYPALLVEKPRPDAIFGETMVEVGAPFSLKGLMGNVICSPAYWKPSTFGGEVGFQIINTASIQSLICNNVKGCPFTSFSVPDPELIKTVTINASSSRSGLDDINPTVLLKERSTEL
Calpain-2 catalytic subunit: Calpain-2 catalytic subunit (Homo sapiens, UniProt P17655)
Chain of UniProt P17655 (whole entry, looked up): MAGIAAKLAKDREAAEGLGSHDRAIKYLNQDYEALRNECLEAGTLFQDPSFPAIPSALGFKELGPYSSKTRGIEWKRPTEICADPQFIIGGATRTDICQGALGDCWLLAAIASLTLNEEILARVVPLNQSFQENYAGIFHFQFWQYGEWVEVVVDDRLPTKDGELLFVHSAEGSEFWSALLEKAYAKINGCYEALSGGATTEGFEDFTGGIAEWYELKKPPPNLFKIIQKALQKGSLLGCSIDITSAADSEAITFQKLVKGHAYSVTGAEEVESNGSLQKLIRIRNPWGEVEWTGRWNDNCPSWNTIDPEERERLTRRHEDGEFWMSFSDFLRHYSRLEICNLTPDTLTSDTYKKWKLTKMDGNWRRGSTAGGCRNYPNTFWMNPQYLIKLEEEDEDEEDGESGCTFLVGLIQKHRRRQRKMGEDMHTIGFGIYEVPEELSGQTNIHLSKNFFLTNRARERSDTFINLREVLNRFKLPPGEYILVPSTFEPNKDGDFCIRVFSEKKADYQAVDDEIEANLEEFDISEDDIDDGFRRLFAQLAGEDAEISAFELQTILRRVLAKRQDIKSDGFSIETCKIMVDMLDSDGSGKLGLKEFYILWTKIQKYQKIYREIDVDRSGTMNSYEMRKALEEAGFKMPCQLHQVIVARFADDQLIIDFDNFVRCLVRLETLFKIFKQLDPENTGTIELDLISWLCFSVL
P4HB: Protein disulfide-isomerase (P4HB, Homo sapiens, UniProt P07237)
Chain of UniProt P07237 (whole entry, looked up): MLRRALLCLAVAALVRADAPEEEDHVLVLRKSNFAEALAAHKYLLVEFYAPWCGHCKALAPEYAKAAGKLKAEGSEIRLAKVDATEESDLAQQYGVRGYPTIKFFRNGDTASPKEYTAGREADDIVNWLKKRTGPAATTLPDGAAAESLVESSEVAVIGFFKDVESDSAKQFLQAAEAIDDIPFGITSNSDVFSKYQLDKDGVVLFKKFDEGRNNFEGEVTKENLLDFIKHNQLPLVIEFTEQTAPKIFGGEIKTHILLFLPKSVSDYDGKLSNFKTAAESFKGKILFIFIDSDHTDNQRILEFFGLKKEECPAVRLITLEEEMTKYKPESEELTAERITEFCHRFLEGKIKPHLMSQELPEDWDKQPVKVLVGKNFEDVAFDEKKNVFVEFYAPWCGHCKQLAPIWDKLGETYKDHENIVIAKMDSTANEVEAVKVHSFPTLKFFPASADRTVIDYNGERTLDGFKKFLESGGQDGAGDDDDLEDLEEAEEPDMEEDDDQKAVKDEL
HDAC3: Histone deacetylase 3 (HDAC3, Homo sapiens, UniProt O15379)
Chain of UniProt O15379 (whole entry, looked up): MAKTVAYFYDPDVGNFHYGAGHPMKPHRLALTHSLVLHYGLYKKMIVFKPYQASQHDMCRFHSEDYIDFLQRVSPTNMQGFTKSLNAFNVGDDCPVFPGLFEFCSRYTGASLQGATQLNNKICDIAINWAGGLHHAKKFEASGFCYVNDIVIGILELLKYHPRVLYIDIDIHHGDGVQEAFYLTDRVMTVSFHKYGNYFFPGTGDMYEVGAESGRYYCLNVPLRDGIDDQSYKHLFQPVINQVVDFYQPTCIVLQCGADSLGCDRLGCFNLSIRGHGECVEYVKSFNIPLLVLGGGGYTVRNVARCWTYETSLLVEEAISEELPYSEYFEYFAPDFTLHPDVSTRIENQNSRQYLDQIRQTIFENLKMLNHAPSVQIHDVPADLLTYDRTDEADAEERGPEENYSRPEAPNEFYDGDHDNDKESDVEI
Chain of UniProt Q8TBC4 (whole entry, looked up): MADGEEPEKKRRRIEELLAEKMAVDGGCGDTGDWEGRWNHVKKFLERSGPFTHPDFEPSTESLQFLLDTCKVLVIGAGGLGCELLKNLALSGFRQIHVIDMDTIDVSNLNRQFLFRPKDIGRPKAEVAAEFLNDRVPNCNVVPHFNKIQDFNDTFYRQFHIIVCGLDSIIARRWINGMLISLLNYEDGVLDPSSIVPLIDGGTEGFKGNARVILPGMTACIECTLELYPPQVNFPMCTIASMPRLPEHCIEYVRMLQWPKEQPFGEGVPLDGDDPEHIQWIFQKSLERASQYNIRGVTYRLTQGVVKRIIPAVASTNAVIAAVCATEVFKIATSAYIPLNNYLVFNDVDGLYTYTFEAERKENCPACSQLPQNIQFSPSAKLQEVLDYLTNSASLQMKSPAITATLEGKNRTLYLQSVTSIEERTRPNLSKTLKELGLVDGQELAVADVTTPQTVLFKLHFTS
Chain of UniProt Q9Y251 (whole entry, looked up): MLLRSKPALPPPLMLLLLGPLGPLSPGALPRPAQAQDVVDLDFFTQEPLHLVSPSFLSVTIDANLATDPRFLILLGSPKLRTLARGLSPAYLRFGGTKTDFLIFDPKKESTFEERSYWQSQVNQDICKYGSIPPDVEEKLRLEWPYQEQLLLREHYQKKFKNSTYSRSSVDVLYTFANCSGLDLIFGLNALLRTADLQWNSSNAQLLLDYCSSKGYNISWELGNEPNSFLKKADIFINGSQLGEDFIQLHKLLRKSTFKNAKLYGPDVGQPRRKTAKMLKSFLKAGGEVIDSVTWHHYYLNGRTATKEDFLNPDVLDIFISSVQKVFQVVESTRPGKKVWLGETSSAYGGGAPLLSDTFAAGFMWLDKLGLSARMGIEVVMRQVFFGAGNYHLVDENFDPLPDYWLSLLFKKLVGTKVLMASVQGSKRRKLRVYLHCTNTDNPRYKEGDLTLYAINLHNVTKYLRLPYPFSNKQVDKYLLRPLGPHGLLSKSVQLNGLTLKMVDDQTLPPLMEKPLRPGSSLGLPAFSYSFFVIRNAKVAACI

Structure (SMILES) = Clc1ccccc1NCc1cn(-c2ccccc2)nc1-c1ccc(OCc2ccccc2)cc1; target = PTGS2; assay = enzyme activity, inhibitor, TMPD chromogenic; scale = baseline: COX-1 IC50 over COX-2 IC50; selectivity ratio = 19.6
Structure (SMILES) = CCC(NC(=O)C(CC(C)C)NC(=O)Nc1ccncc1)C(=O)C(=O)NCc1cc(OC)cc(OC)c1 (centres unmarked); target = Calpain-2 catalytic subunit; assay = enzyme activity, inhibitor; conditions = added: Suc-Leu-Tyr-AMC; scale = baseline: Ki calpain-1 over calpain-2; selectivity ratio = 1.4
Structure (SMILES) = CCCC[C@H](NC(C)=O)C(=O)N[C@@H](CO)C(=O)N[C@H](C(=O)N1CCC[C@H]1C(=O)N[C@]1(C)CCCCCCC=CCCC[C@@](C)(C(=O)N[C@@H](Cc2ccccc2)C(=O)N[C@@H](CCCCN)C(=O)N[C@@H](CCCNC(=N)N)C(=O)N[C@@H](CC(C)C)C(=O)N[C@@H](CCC(N)=O)C(N)=O)NC(=O)[C@H](CCCNC(=N)N)NC(=O)[C@H](CCCC)NC(=O)[C@H](CC(C)C)NC(=O)[C@H](CCCNC(=N)N)NC(=O)[C@H](CCCNC(=N)N)NC(=O)[C@H](CCCNC(=N)N)NC1=O)[C@@H](C)O; target = NEDD8-activating enzyme E1 catalytic subunit, part with NAE1 (UBA3, Homo sapiens, UniProt Q8TBC4); assay = thioester transfer to UBE2M, inhibitor; scale = baseline: IC50 of target over UBE1; selectivity ratio = 6 fold
Structure (SMILES) = CCCCCCc1ccc(S(=O)(=O)N2CC2C(N)=O)cc1 (centres unmarked); target = P4HB; assay = insulin reduction, inhibitor; scale = baseline: IC50 PDIA1 over IC50 PDIA3; selectivity ratio = 0.0004 to 0.0035
Structure (SMILES) = NS(=O)(=O)c1ccc(-n2cc(CNc3ccccc3Cl)c(-c3ccc(OCc4ccccc4)cc3)n2)cc1; target = PTGS2; assay = enzyme activity, inhibitor, TMPD chromogenic; scale = baseline: COX-1 IC50 over COX-2 IC50; selectivity ratio = 73
Structure (SMILES) = CN(C)CCNC(=O)c1cccc2c(NCCCCc3c(N)nc(N)nc3N)c3ccccc3nc12; target = tRNA; assay = binding, ITC; scale = baseline: Kd RNA A over Kd tRNA; selectivity ratio = 670
Structure (SMILES) = O=C(CCCCCCN(Cc1ccc([N+](=O)[O-])cc1)Cc1ccc([N+](=O)[O-])cc1)NO; target = HDAC3; assay = deacetylase activity, inhibitor, fluorescence; conditions = added: Boc-Lys(Ac)-AMC substrate; scale = baseline: IC50 HDAC3 over IC50 HDAC1; selectivity ratio = 0.7
Structure (SMILES) = CCC(NC(=O)C(CC(C)C)NC(=O)NCc1ccccc1)C(=O)C(=O)NCc1cc(F)cc(OC)c1 (centres unmarked); target = Calpain-2 catalytic subunit; assay = enzyme activity, inhibitor; conditions = added: Suc-Leu-Tyr-AMC; scale = baseline: Ki calpain-1 over calpain-2; selectivity ratio = 1
Structure (SMILES) = CCCCCCc1ccc(S(=O)(=O)N2CC2C(=O)OC)cc1 (centres unmarked); target = P4HB; assay = insulin reduction, inhibitor; scale = baseline: IC50 PDIA1 over IC50 PDIA3; selectivity ratio = 0.0004 to 0.0035
Structure (SMILES) = Fc1ccc(NCc2cn(-c3ccccc3)nc2-c2ccc(OCc3ccccc3)cc2)cc1; target = PTGS2; assay = enzyme activity, inhibitor, TMPD chromogenic; scale = baseline: COX-1 IC50 over COX-2 IC50; selectivity ratio = 33.8
Structure (SMILES) = CCCCCc1ccc(S(=O)(=O)N2CC2C(=O)N(C)C)cc1 (centres unmarked); target = P4HB; assay = insulin reduction, inhibitor; scale = baseline: IC50 PDIA1 over IC50 PDIA3; selectivity ratio = 0.0004 to 0.0035
Structure (SMILES) = CCc1nc2cc3ccccc3cc2cc1C(=O)N1CCC[C@H]1C(=O)N[C@@H](CCC/C=C/CCC[C@H](NC(=O)[C@@H]1CCCN1C(=O)c1cc2cc3ccccc3cc2nc1CC)C(=O)N[C@@H](CCCCN)C(=O)NCCCN)C(=O)N[C@@H](CCCCN)C(=O)NCCCN; target = (CUG)10 RNA; assay = binding, SPR; scale = baseline: (CUG)10 over (CAG)10; selectivity ratio = 38 fold
Structure (SMILES) = CCC(NC(=O)C(CC(C)C)NC(=O)NCc1ccccc1)C(=O)C(=O)NCc1cc(OC)cc(OC)c1 (centres unmarked); target = Calpain-2 catalytic subunit; assay = enzyme activity, inhibitor; conditions = added: Suc-Leu-Tyr-AMC; scale = baseline: Ki calpain-1 over calpain-2; selectivity ratio = 2.9
Structure (SMILES) = CC(C)CCN(c1nc(C#N)nc(NC2COC2)n1)C(C)c1ccc(F)cc1 (centres unmarked); target = CPL (Toxoplasma gondii, UniProt Q6DMN0); assay = enzyme activity, inhibitor; scale = baseline: human over Toxoplasma IC50; selectivity ratio = 0.25
Structure (SMILES) = O=C(CCCCCCN(Cc1cccnc1)Cc1cccnc1)NO; target = HDAC3; assay = deacetylase activity, inhibitor, fluorescence; conditions = added: Boc-Lys(Ac)-AMC substrate; scale = baseline: IC50 HDAC3 over IC50 HDAC1; selectivity ratio = 1
Structure (SMILES) = Fc1ccc(NCc2cn(-c3ccccc3)nc2-c2ccc(OCc3ccccc3)cc2)cc1Cl; target = PTGS2; assay = enzyme activity, inhibitor, TMPD chromogenic; scale = baseline: COX-1 IC50 over COX-2 IC50; selectivity ratio = 32.3
Structure (SMILES) = O=C(CCCCCCN(Cc1ccc(F)cc1)Cc1ccc(F)cc1)NO; target = HDAC3; assay = deacetylase activity, inhibitor, fluorescence; conditions = added: Boc-Lys(Ac)-AMC substrate; scale = baseline: IC50 HDAC3 over IC50 HDAC1; selectivity ratio = 0.92
Structure (SMILES) = CCC(NC(=O)C(CC(C)C)NC(=O)CCc1ccccc1)C(=O)C(=O)NCc1cc(OC)cc(OC)c1 (centres unmarked); target = Calpain-2 catalytic subunit; assay = enzyme activity, inhibitor; conditions = added: Suc-Leu-Tyr-AMC; scale = baseline: Ki calpain-1 over calpain-2; selectivity ratio = 2.4
Structure (SMILES) = COc1ccc(CNCCCCCCC(=O)NO)cc1OC; target = HDAC3; assay = deacetylase activity, inhibitor, fluorescence; conditions = added: Boc-Lys(Ac)-AMC substrate; scale = baseline: IC50 HDAC3 over IC50 HDAC1; selectivity ratio = 0.86
Structure (SMILES) = NS(=O)(=O)c1ccc(-n2cc(CNc3ccccc3)c(-c3ccc(OCc4ccccc4)cc3)n2)cc1; target = PTGS2; assay = enzyme activity, inhibitor, TMPD chromogenic; scale = baseline: COX-1 IC50 over COX-2 IC50; selectivity ratio = 14.9
Structure (SMILES) = O=C(CCCCCCNCc1ccc2c(c1)OCO2)NO; target = HDAC3; assay = deacetylase activity, inhibitor, fluorescence; conditions = added: Boc-Lys(Ac)-AMC substrate; scale = baseline: IC50 HDAC3 over IC50 HDAC1; selectivity ratio = 1.3
Structure (SMILES) = Fc1ccccc1NCc1cn(-c2ccccc2)nc1-c1ccc(OCc2ccccc2)cc1; target = PTGS2; assay = enzyme activity, inhibitor, TMPD chromogenic; scale = baseline: COX-1 IC50 over COX-2 IC50; selectivity ratio = 10.1
Structure (SMILES) = O=C(CCCCCCNCc1ccc(F)cc1)NO; target = HDAC3; assay = deacetylase activity, inhibitor, fluorescence; conditions = added: Boc-Lys(Ac)-AMC substrate; scale = baseline: IC50 HDAC3 over IC50 HDAC1; selectivity ratio = 1.1
Structure (SMILES) = O=C(O)[C@@H]1[C@@H](OCCNC(=O)C(F)(F)F)[C@H](O)[C@@H](O)[C@@H]2O[C@@H]21; target = Heparanase (HPSE, Homo sapiens, UniProt Q9Y251); assay = inhibitor, competitive ABPP; scale = baseline: IC50 E. coli β-glucuronidase over HPSE; selectivity ratio = 67
Structure (SMILES) = O=C(CCCCCCN(Cc1ccccc1)Cc1ccccc1)NO; target = HDAC3; assay = deacetylase activity, inhibitor, fluorescence; conditions = added: Boc-Lys(Ac)-AMC substrate; scale = baseline: IC50 HDAC3 over IC50 HDAC1; selectivity ratio = 1
Structure (SMILES) = CCC(NC(=O)C(CC(C)C)NC(=O)CCc1ccncc1)C(=O)C(=O)NCc1cc(OC)cc(OC)c1 (centres unmarked); target = Calpain-2 catalytic subunit; assay = enzyme activity, inhibitor; conditions = added: Suc-Leu-Tyr-AMC; scale = baseline: Ki calpain-1 over calpain-2; selectivity ratio = 1

A few entries again:
Structure (SMILES) = O=C(CCCCCCN(Cc1ccccc1)Cc1ccccc1)NO; target = HDAC3; assay = deacetylase activity, inhibitor, fluorescence; conditions = added: Boc-Lys(Ac)-AMC substrate; scale = baseline: IC50 HDAC3 over IC50 HDAC1; selectivity ratio = 1
Structure (SMILES) = CCCCCc1ccc(S(=O)(=O)N2CC2C(=O)N(C)C)cc1 (centres unmarked); target = P4HB; assay = insulin reduction, inhibitor; scale = baseline: IC50 PDIA1 over IC50 PDIA3; selectivity ratio = 0.0004 to 0.0035
Structure (SMILES) = O=C(CCCCCCNCc1ccc2c(c1)OCO2)NO; target = HDAC3; assay = deacetylase activity, inhibitor, fluorescence; conditions = added: Boc-Lys(Ac)-AMC substrate; scale = baseline: IC50 HDAC3 over IC50 HDAC1; selectivity ratio = 1.3
Structure (SMILES) = O=C(CCCCCCNCc1ccc(F)cc1)NO; target = HDAC3; assay = deacetylase activity, inhibitor, fluorescence; conditions = added: Boc-Lys(Ac)-AMC substrate; scale = baseline: IC50 HDAC3 over IC50 HDAC1; selectivity ratio = 1.1
